{"data": "Measured values pooled from the literature", "note": "Every numbered part comes from another study and shows a few of its results, in no order. Substitutions count along the parent as printed."}
{"data": "Study 1", "target": "Interferon regulatory factor 5, full length, phosphomimetic (IRF5, Homo sapiens, UniProt Q13568-2, residues 1-514, K96S/S451D/S453D/S456D/S462D)", "method": "protein-binding microarray", "molecule type": "double-stranded DNA, one strand shown", "sample": "in vitro", "concentration": "250 nM", "notes": "60-bp whole probe", "together with": "salmon DNA 0.4 mg/ml", "relative to": "random background probes", "direction": "higher = stronger binding", "all sequences stand within": "GCCTAGCAC … GTCTTGATTCGCTTGACGCTGCTG"}
{"Strand": "GACGGACTGGGTCTTGGGACGTGCTAG", "log fluorescence [z-score]": -0.808}
{"Strand": "TTAGGACTCGGGTATCGGTTAGTGCTA", "log fluorescence [z-score]": 3.27}
{"Strand": "GACGGTTTCCTCTCCCTGACGTGCTAG", "log fluorescence [z-score]": 0.437}
{"Strand": "GAGGAACTGAGACTGGAGACGTGCTAG", "log fluorescence [z-score]": -0.406}
{"Strand": "TCAACAATGATGTTTTGAACTGTGCTA", "log fluorescence [z-score]": 0.576}
{"Strand": "TGTTACTAGGGTTACATAATGTGCTAG", "log fluorescence [z-score]": 0.0637}
{"Strand": "TTCTTGCGGAGTTTCTTGCAGTGCTAG", "log fluorescence [z-score]": 0.709}
{"Strand": "TCAATCTTCATTGTCATACTGTGCTAG", "log fluorescence [z-score]": 0.537}
{"Strand": "TTATATTTCGGGTATCGATTAGTGCTA", "log fluorescence [z-score]": 7.62}
{"Strand": "TTAGATATCGGGTATCGATCAGTGCTA", "log fluorescence [z-score]": 4.99}
{"Strand": "TTAGATATCAGTCACGATTAGTGCTAG", "log fluorescence [z-score]": 1.44}
{"data": "Study 2", "target": "ABI1, truncated, D143A, DHFR fusion (Arabidopsis thaliana)", "method": "DHFR PCA, deep sequencing", "sample": "yeast", "notes": "methotrexate growth selection, single substitutions", "together with": "(+)-ABA 1.4 µM", "relative to": "wild-type fitted maximum", "direction": "higher = stronger binding", "starting sequence": "PYL1, truncated, DHFR fusion (Arabidopsis thaliana); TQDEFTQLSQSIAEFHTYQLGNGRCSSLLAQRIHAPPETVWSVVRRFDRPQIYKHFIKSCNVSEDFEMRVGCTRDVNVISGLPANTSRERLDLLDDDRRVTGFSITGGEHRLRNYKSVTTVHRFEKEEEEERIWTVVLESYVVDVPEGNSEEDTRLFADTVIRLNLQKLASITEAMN; partner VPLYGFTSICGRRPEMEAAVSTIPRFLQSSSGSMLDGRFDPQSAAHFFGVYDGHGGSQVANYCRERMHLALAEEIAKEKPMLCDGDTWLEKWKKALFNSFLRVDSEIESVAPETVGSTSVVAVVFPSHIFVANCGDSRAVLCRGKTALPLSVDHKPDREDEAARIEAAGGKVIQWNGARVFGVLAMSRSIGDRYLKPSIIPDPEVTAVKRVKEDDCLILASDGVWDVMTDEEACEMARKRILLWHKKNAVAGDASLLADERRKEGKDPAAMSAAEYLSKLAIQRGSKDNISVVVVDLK"}
{"Substitution": "C25T", "relative binding score [%]": 56}
{"Substitution": "T160I", "relative binding score [%]": -4.66}
{"Substitution": "A84W", "relative binding score [%]": 87.5}
{"Substitution": "T73M", "relative binding score [%]": 59.2}
{"Substitution": "T86M", "relative binding score [%]": 35.6}
{"Substitution": "E67H", "relative binding score [%]": 42.5}
{"data": "Study 3", "target": "Sal-like protein 4, full length isoform A (SALL4, Homo sapiens, UniProt Q9UJQ4, residues 1-1053)", "method": "universal PBM", "molecule type": "double-stranded DNA, one strand shown", "sample": "in vitro", "concentration": "600 nM", "notes": "8-mer, flanks averaged, mean of replicates", "direction": "higher = stronger binding", "sequence of UniProt Q9UJQ4 (whole entry, looked up)": "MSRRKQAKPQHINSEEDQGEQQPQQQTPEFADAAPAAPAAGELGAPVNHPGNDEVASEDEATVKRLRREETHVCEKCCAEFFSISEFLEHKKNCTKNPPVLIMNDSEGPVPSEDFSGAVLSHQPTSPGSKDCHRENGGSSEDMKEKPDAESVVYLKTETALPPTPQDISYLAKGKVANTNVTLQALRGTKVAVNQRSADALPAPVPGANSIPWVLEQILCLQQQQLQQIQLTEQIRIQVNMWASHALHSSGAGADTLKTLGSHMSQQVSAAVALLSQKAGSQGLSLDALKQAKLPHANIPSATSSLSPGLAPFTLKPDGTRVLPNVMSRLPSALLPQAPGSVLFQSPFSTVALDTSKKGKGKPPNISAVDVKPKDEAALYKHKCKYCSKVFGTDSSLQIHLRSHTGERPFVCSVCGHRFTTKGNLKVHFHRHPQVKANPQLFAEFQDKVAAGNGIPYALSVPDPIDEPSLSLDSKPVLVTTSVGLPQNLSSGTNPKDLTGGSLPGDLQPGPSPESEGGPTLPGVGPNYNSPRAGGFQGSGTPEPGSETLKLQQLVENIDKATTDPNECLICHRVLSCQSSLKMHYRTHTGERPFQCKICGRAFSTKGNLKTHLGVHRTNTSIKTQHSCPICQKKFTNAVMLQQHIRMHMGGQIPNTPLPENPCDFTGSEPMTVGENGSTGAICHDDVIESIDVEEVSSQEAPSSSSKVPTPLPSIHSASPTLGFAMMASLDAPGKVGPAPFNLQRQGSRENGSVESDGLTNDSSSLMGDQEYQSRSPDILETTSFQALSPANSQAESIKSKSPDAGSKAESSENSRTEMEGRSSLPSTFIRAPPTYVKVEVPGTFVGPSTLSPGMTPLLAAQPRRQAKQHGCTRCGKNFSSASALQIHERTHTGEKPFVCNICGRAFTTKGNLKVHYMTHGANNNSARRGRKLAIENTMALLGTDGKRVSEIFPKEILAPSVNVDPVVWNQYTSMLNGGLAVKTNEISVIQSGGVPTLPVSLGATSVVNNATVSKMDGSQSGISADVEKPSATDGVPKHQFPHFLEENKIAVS"}
{"Strand": "AACGCTAG", "E-score": -0.099}
{"Strand": "GTCCCGCA", "E-score": -0.225}
{"Strand": "AGTATGAC", "E-score": 0.209}
{"Strand": "CCTTGGTC", "E-score": -0.247}
{"Strand": "AACGATAC", "E-score": 0.125}
{"Strand": "ACATTGTC", "E-score": 0.173}
{"Strand": "CTTACGAA", "E-score": 0.138}
{"Strand": "AGAGTCTC", "E-score": -0.192}
{"Strand": "GATAATGA", "E-score": 0.294}
{"Strand": "GTTATTAA", "E-score": 0.439}
{"Strand": "AGACCCTC", "E-score": -0.297}
{"Strand": "AGATCCGG", "E-score": -0.131}
{"data": "Further values, each from its own experiment"}
{"Substance": "GSALKKLFTSTGL", "tested on": "Saccharomyces cerevisiae", "test": "binding, competitive growth deep sequencing", "system": "peptide, cyclin D3-Cln2 fusion strain", "setting": "concentration not given, peptide library 1", "scale": "direction not given", "endpoint": "growth enrichment score", "value": -0.0161}
{"Substance": "PhoQ, residues 284 288 289 292 302 303 SMMNNA", "tested on": "PhoP, residues 12 14 15 18 19 NYFTV (Escherichia coli, UniProt P23836)", "test": "Sort-seq, item: YFP reporter", "system": "E. coli", "setting": "PhoQ-PhoP variant library, together with: 10 µM Mg2+", "scale": "relative to: high Mg2+ state, higher = stronger signaling", "endpoint": "fold induction", "value": 7.48}
{"Substance": "GSPLAKAFTSTGL", "tested on": "Saccharomyces cerevisiae", "test": "binding, competitive growth deep sequencing", "system": "peptide, cyclin D3-Cln2 fusion strain", "setting": "concentration not given, peptide library 1", "scale": "direction not given", "endpoint": "growth enrichment score", "value": -0.371}
{"note": "Excerpt of the above (study 3):"}
{"Strand": "GTCCCGCA", "E-score": -0.225}
{"Strand": "AGTATGAC", "E-score": 0.209}
{"Strand": "CCTTGGTC", "E-score": -0.247}
{"Strand": "AACGATAC", "E-score": 0.125}
{"Strand": "ACATTGTC", "E-score": 0.173}
